Measured values collected from several papers.
Lines come from different studies, so protocols differ. Values joined by “and” are separate records of one study, mostly repeats; a detail may differ. Numbers after ± are the reported error.
ESR2: Estrogen receptor beta (ESR2, Homo sapiens, UniProt Q92731)
UniProt Q92731, sequence (whole entry, looked up): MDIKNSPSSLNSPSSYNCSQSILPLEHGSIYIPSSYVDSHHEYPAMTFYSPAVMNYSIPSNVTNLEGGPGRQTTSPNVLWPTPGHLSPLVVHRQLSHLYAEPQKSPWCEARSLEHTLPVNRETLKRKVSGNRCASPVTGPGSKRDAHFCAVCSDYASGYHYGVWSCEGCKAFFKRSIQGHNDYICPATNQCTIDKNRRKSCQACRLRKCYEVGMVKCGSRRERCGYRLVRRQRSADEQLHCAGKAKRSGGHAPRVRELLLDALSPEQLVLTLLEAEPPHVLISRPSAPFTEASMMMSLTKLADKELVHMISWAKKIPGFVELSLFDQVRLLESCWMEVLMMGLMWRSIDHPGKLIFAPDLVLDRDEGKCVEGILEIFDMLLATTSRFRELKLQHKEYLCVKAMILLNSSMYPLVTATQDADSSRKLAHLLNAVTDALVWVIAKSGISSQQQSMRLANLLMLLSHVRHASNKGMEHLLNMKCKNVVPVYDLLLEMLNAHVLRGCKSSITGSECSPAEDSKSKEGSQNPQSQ
STUB1: E3 ubiquitin-protein ligase CHIP (STUB1, Homo sapiens, UniProt Q9UNE7)
UniProt Q9UNE7, sequence (whole entry, looked up): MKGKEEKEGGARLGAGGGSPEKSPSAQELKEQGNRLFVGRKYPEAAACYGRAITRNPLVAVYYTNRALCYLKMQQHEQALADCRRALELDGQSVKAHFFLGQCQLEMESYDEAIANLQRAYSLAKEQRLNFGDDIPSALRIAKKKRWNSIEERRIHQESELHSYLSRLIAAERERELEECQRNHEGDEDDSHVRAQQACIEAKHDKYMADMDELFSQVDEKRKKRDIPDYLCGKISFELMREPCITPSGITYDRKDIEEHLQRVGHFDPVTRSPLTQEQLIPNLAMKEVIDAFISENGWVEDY
TOP2A: DNA topoisomerase 2-alpha (TOP2A, Homo sapiens, UniProt P11388)
UniProt P11388, sequence (whole entry, looked up): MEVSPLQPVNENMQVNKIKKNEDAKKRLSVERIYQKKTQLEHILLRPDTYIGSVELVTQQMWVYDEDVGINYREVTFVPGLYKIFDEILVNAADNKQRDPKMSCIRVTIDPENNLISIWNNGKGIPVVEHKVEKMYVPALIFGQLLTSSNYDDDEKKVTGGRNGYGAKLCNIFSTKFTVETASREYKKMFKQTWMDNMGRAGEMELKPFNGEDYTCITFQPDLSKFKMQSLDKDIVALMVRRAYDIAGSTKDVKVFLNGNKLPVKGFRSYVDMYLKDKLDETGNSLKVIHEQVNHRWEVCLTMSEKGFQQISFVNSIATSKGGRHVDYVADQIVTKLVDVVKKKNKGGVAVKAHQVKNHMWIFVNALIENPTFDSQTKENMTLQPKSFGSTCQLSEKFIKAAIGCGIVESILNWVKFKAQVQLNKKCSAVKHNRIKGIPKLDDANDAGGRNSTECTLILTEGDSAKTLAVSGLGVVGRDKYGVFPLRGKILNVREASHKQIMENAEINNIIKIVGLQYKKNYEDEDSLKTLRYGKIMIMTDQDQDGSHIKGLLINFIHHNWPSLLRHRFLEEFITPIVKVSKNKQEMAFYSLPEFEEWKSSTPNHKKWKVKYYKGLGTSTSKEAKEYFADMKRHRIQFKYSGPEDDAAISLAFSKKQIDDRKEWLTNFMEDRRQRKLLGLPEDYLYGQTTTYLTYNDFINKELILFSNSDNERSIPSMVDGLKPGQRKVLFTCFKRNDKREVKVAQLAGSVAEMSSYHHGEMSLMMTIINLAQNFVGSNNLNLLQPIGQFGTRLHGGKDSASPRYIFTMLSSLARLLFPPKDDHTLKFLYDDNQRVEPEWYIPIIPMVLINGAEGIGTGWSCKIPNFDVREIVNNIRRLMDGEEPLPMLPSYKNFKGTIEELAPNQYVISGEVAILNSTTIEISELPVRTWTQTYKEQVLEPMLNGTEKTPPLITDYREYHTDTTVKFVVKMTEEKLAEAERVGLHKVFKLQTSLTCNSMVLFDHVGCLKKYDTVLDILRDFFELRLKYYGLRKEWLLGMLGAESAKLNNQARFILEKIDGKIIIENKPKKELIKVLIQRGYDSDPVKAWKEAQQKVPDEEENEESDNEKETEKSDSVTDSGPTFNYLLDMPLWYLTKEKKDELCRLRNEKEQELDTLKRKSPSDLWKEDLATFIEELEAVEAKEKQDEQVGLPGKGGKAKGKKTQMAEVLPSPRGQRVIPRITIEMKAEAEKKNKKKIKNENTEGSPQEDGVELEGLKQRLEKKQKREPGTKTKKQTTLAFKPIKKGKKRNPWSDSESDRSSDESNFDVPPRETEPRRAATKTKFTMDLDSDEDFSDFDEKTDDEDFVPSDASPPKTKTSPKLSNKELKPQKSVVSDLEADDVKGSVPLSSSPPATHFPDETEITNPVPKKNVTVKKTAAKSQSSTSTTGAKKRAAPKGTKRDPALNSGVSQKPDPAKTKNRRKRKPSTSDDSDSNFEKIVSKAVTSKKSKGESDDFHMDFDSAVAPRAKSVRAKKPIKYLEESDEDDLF
HTR2A: 5-hydroxytryptamine receptor 2A (HTR2A, Homo sapiens, UniProt P28223)
UniProt P28223, sequence (whole entry, looked up): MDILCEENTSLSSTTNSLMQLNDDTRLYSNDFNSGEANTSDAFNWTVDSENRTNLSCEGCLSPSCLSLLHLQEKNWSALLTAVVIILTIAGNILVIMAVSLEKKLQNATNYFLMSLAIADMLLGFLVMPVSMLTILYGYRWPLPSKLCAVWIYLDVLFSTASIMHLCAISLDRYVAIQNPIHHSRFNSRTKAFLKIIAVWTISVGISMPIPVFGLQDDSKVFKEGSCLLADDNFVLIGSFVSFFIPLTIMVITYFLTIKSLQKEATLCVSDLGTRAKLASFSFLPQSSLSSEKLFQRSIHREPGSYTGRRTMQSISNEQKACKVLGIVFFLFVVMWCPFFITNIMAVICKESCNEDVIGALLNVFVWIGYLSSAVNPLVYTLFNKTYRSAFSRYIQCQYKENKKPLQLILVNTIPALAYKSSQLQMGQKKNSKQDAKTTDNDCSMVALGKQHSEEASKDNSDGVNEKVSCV
T1: RNA aptamer; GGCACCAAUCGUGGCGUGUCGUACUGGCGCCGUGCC
UniProt P51575, sequence (whole entry, looked up): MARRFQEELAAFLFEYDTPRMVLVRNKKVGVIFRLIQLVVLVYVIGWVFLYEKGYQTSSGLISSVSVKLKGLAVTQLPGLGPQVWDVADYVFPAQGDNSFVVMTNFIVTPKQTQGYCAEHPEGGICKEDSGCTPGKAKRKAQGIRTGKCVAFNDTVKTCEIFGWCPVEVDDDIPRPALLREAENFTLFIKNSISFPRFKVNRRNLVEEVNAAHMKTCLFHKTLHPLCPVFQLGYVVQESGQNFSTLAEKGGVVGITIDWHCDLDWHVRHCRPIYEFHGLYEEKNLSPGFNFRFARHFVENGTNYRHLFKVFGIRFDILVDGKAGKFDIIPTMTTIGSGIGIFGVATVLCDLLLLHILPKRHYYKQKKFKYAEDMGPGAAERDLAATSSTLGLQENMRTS
UniProt Q16774, sequence (whole entry, unmodified, looked up): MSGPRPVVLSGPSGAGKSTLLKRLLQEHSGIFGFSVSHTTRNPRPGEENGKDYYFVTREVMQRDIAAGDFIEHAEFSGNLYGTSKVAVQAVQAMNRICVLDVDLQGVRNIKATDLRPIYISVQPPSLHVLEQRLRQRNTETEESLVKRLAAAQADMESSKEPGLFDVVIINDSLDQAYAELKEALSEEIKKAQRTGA
UniProt Q695T7, sequence (whole entry, looked up): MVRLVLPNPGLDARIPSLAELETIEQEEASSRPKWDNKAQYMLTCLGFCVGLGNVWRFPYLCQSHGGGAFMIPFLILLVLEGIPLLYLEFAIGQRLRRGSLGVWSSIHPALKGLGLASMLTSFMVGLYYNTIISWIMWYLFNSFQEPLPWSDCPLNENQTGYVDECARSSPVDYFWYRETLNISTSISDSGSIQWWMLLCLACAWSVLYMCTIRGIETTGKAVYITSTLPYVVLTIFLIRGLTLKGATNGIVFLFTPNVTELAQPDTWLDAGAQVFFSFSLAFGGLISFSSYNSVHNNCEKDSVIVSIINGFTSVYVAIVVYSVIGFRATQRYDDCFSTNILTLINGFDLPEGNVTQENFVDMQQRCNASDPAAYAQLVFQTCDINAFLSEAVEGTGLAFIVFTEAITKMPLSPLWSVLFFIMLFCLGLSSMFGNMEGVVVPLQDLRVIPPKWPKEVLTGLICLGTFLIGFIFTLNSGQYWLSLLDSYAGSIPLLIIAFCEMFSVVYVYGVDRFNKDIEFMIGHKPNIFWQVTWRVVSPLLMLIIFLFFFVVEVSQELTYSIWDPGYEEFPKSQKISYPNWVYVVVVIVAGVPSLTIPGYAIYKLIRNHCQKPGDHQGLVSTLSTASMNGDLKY
UniProt Q9NQS5, sequence (whole entry, looked up): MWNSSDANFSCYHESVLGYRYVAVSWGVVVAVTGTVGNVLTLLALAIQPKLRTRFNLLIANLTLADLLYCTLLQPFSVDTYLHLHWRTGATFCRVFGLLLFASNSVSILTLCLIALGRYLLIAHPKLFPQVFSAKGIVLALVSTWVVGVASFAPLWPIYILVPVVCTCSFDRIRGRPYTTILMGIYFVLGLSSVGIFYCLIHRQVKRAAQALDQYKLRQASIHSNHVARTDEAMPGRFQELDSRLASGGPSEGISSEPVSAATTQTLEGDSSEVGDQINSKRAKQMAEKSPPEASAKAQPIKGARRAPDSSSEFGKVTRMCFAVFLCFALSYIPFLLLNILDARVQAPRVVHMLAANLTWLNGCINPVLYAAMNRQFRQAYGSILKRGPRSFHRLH
UniProt Q92847, sequence (whole entry, looked up): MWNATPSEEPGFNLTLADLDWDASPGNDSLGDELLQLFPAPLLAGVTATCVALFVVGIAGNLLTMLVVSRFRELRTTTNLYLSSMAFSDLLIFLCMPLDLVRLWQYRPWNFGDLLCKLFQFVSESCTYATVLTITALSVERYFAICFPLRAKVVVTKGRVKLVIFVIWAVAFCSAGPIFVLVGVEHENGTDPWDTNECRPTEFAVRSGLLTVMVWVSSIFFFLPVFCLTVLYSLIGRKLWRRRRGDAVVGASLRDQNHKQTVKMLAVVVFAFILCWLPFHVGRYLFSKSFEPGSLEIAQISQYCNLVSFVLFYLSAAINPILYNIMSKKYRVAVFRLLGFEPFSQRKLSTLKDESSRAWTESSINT

`c1cncc(OC[C@H]2CN(CCN3CCc4ccccc43)CCO2)c1` gave an inhibition of 45.3% (5-hydroxytryptamine receptor 7 (HTR7, Homo sapiens, UniProt P34969); radioligand binding; concentration not given, with: [3H]LSD).
`COc1cc(-c2oc3cc(O)cc(O)c3c(=O)c2O[C@@H]2O[C@H](CO)[C@@H](O)[C@H](O)[C@H]2O[C@@H]2O[C@@H](C)[C@H](O)[C@@H](O)[C@H]2O)ccc1O` has an EC50 of 7220 nM (ESR2; array formation, agonist; GFP-ERβ PRL-HeLa; 1 h).
For `CC(C)[C@H](NC(=O)c1cc(-c2cnn3cc(-c4ccc(OCCN5CCCCC5)cc4)cnc23)cs1)C(F)(F)F`, the relative inhibition was 0 (RSK4 (human); radiometric kinase; 15 nM; baseline: RSK4 over ULK1).
For `Nc1ncnc2c1ncn2[C@@H]1O[C@H](COP(=O)(O)OP(=O)(O)OP(=O)(O)O)[C@@H](O)[C@H]1O`, the Km was 2400 ± 400 µM (Hexokinase-3 (HK3, Homo sapiens, UniProt P52790, R480W); substrate; mutant R480W, with: glucose 0.5 mM).
`O=S(=O)(O)C1CCNCC1` — result for “normalised MST signal”: 0.0294 (Sodium- and chloride-dependent taurine transporter (SLC6A6, Homo sapiens, UniProt P31641, G62A); binding, microscale thermophoresis; 488 nM, room temperature, with: 50 nM labelled protein; higher = more binding).
For `C[C@]12C[C@H](O)[C@H]3[C@@H](CCC4=CC(=O)CC[C@@]43C)[C@@H]1CC[C@@H]2C(=O)CO`, “18-hydroxylation product formation rate” read 0.8 ± 0.2 min⁻¹ (Cytochrome P450 11B2, mitochondrial (CYP11B2, Homo sapiens, UniProt P19099, A320V); substrate; 100 µM, 37 °C, phospholipid vesicles).
For `COCCC(=O)N1CCC(Oc2ccccc2)C1` (centres unmarked), “log fold enrichment” read -0.114 (STUB1; binding, affinity selection mass spectrometry; baseline: other proteins in batch).
`CCN1CCC[C@H]1CNC(=O)c1c(O)c(Cl)cc(Cl)c1OC` — result for “log2 fold change”: 0.025 (GPR37 (Homo sapiens, UniProt O15354); β-arrestin recruitment, TANGO luminescence; concentration not given; baseline: basal luminescence).
`Cc1n[nH]c2ccc(-c3cc(OC[C@@H](N)Cc4ccccc4)cnc3-c3ccoc3)cc12` — result for “log2 fold change”: -0.233 (Protein kinase C-like 1 (Candida albicans, UniProt P43057); kinase binding, competitor, MIB/MS competition, item: PKC1; Candida albicans cell lysate; 10 µM; baseline: DMSO).
`C[C@@H](O)CNC(C)(C)CC(=O)N[C@@H]1CCc2ccccc2N(Cc2ccc(-c3ccccc3-c3nn[nH]n3)cc2)C1=O` gave a Hill slope of 0.66 (Growth hormone secretagogue receptor type 1 (GHSR, Homo sapiens, UniProt Q92847); Gαq dissociation, TRUPATH BRET; HEK293T; shared parameter fit).
`C[C@]12CC[C@@H]3c4ccc(O)cc4CC[C@H]3[C@@H]1CC[C@@H]2O` has a Vmax of 74 ± 3 pmol/min/mg protein (UDP-glucuronosyltransferase 1A1 (UGT1A1, Homo sapiens, UniProt P22309); glucuronidation, substrate; human liver microsomes).
With `CC(C)C[C@H](NC(=O)C[C@H](O)[C@H](CC(C)C)NC(=O)[C@H](Cc1c[nH]cn1)NC(=O)CNC(=O)[C@@H](NC(=O)[C@H](C)NC(=O)[C@H](Cc1c[nH]c2ccccc12)NC(=O)[C@H](CCC(N)=O)NC(=O)[C@@H](Cc1ccccc1)NC(=O)COCCOCCNC(=O)CCC(C(=O)O)N1CCN(CC(=O)O)CCN(CC(=O)O)CC1)C(C)C)C(N)=O` (some centres unmarked) [lutetium-177 labelled] the tissue uptake was 0.1 ± 0.04 %ID/g (female BALB/c nu/nu mice, muscle; intravenous, 50 pmol, 1 h).
`O=C(O)[C@@H]1CCCN1c1ncnc2[nH]cnc12` (racemic) gave a fold enrichment of 0.937 (STUB1; binding, affinity selection mass spectrometry; baseline: other proteins in batch).
The current amplitude of `CC(C)C[C@H](N)C(=O)O` is reported as 1020 ± 214 nA (Sodium- and chloride-dependent neutral and basic amino acid transporter B(0+) (Slc6a14, Mus musculus, UniProt Q9JMA9); transport current, two-electrode voltage clamp; Xenopus oocytes coexpressing GluN1-GluN2B; 200 µM).
The Emax of `CCCCC[C@H](O)/C=C/[C@H]1[C@H](O)CC(=O)[C@@H]1C/C=C\CCCC(=O)O` is reported as 43.1 ± 6.78% (Prostaglandin E2 receptor EP1 subtype (PTGER1, Homo sapiens, UniProt P34995, R338A); IP1 accumulation, agonist; AD293; 1 h, EP1 R338A mutant).
The reaction velocity of `O=S(=O)(O)O` is reported as 0.0397 µM/s and 0.0591 µM/s and 0.0398 µM/s (GUK1 (Homo sapiens, UniProt Q16774); enzyme activity, NADH-coupled; 1 mM, with: ATP 62.5 µM).
The Km of `O=[N+]([O-])c1ccc(O[C@@H]2O[C@H](CO)[C@@H](O)[C@H](O)[C@H]2O)cc1` is reported as 28.6 mg/mL (β-glucosidase (Thermomyces); Lineweaver-Burk plot, item: p-nitrophenol; optimal pH and temperature).
Under “ATP hydrolysis rate”, `O=c1nc(SCc2cc(F)cc(C(F)(F)F)c2)nc(SCc2ccc3sccc3c2)[nH]1` is recorded as 1.42 µM/min and 2.12 µM/min (TOP2A; ATPase activity; 1.95 µM, with: ATP 0.25 mM).
`O=C(O)c1ccc(-n2nc(-c3ccccc3O)nc2-c2ccccc2O)cc1` has an inhibition of -151% (Nedd8-cullin1 interaction; neddylation, AlphaScreen; 100 µM).
For `O=c1nc(SCc2cc(F)cc(C(F)(F)F)c2)nc(SCc2ccc3nc(Cl)ccc3c2)[nH]1`, the linear DNA was 0% (TOP2A; DNA cleavage; 31.25 µM, replicate 1).
Under “change in Emax”, `CCc1oc2c([C@H](CO)N(CC)CC)cccc2c1C` is recorded as 1.07 (Lysophosphatidic acid receptor 1 (LPAR1, Homo sapiens, UniProt Q92633, W210A); Gi activation, agonist, NanoBiT G-protein dissociation; HEK293T; W210A mutant, unit not given; baseline: wild type).
With `COc1ccccc1N1CCN(c2cc(=O)[nH]c(=O)[nH]2)CC1` the EC50 was 37.8 ± 7.1 nM (G-protein coupled receptor 84 (GPR84, Homo sapiens, UniProt Q9NQS5); cAMP level, agonist; human cells).
`Nc1ccn([C@@H]2O[C@H](COP(=O)(O)OP(=O)([O-])OP(=O)([O-])O)[C@@H](O)[C@H]2O)c(=O)n1.[Na+].[Na+]` gave an inhibition of 45.1% (Nedd8-cullin1 interaction; neddylation, AlphaScreen; 100 µM).
For `COc1cc(C(=O)NS(=O)(=O)c2ccccc2C)ccc1Cc1cn(C)c2ccc(NC(=O)OC3CCCC3)cc12`, the Hill coefficient was 1.23 (LRRC8A/LRRC8C (Homo sapiens, UniProt Q8IWT6+Q8TDW0, E6A); whole-cell patch clamp; HCT116 LRRC8-/- transfected; at -100 mV).
`CC(=O)N[C@H](C(=O)N1C[C@H](O)C[C@H]1C(=O)NCc1ccc(-c2scnc2C)cc1)C(C)(C)SCCCCCCNC(=O)C[C@@H]1N=C(c2ccc(Cl)cc2)c2c(sc(C)c2C)-n2c(C)nnc21` has a binding stoichiometry of 0.7 ± 0.06 (BRD4/VHL, BD2; with elongins B/C (Homo sapiens, UniProt O60885+P40337, A384K/E383V/K378Q); ITC; concentration not given, 25 °C, ternary complex, with: BRD4 BD2).
`Cc1cc(OCC(=O)NC(C)C)cc(C)c1Cl`: “normalised transport activity” 0.549 and 0.583 and 0.683 and 0.643 (Sodium-dependent neutral amino acid transporter B(0)AT1 (SLC6A19, Homo sapiens, UniProt Q695T7); membrane potential, FLIPR membrane potential; CHO-BC cells; concentration not given, first screen; baseline: uninhibited control).
`CN(CCO)c1ccc(/C=C(\C#N)c2ccc(C#N)cc2)cc1` — result for binding: “no binding” (T1, RNA aptamer; fluorescence titration).
For `C=CC(=O)N1CCC(COCC(=O)N2CCN(c3nc(-c4cnc(N)nc4C(F)F)nc(N4CCOC[C@@H]4C)n3)CC2)CC1`, the remaining binding was 100% (Dual specificity protein kinase CLK4 (CLK4, Homo sapiens, UniProt Q9HAZ1); KINOMEscan; 1 µM).
`O=C(CN1CCO[C@@H](COc2cccnc2)C1)N1CCc2ccccc21` gave an inhibition of 73.3% (HTR2A; radioligand binding; concentration not given, with: [3H]ketanserin).
`CC1=C(/C=C/C(C)=C/C=C/C(C)=C/C=O)C(C)(C)CCC1` has a relative kon of 1.08 ± 0.27 (Rhodopsin, G270S/S144C (RHO, Bos taurus, UniProt P02699, G270S/S144F); retinal entry, Alexa488 FRET; lipid bicelles; 28 °C, G270S mutant; baseline: wild-type rhodopsin).
For `Nc1ncnc2c1ncn2[C@@H]1O[C@H](COP(=O)(O)CP(=O)(O)OP(=O)(O)O)[C@@H](O)[C@H]1O`, the calcium influx was 77% and 81.8% and 89.9% (P2X purinoceptor 1 (P2RX1, Homo sapiens, UniProt P51575); calcium influx; 10 µM; baseline: ionomycin response).
With `Nc1ccc2cc3ccc(N)cc3nc2c1` the binding enthalpy was -34 ± 0.884 kcal/mol (Chymotrypsinogen A, activated (alpha-chymotrypsin) (Bos taurus, UniProt P00766); isothermal titration calorimetry; concentration not given, 25 °C, with: 0.5 M TMAO).
For `CC1CCCN(C(=O)c2cc3ncccn3n2)C1` (centres unmarked), the fold enrichment was 1.1 (Histone acetyltransferase type B catalytic subunit (Homo sapiens, UniProt O14929); binding, affinity selection mass spectrometry; baseline: other proteins in batch).
`Nc1nc2c(ncn2[C@@H]2O[C@H](COP(=O)(O)O)[C@@H](O)[C@H]2O)c(=O)[nH]1` gave a -TΔS of 6.44 kcal/mol (GUK1 (Homo sapiens, UniProt Q16774, T83A); binding, ITC).
`Cc1ncsc1-c1ccc([C@H](C)NC(=O)[C@@H]2C[C@@H](O)CN2C(=O)[C@@H](NC(=O)CCCCCCCCC(=O)N(CCO)CCCOc2ccc3c(Nc4cc(CC(=O)Nc5cccc(F)c5)[nH]n4)ncnc3c2)C(C)(C)C)cc1` — result for “onset of significant degradation”: 2 h (Aurora kinase B (AURKB, Homo sapiens, UniProt Q96GD4); degrader, western blot; HPAF-II cells; 1 µM).
For `COc1ccc(-c2cc(=O)c3c(O)cc(O)cc3o2)cc1`, the EC50 was 955 nM (ESR2; array formation, agonist; GFP-ERβ PRL-HeLa; 1 h).
For `C[S+]([O-])c1ccc(-c2nc(-c3ccncc3)c(-c3ccc(F)cc3)[nH]2)cc1` (centres unmarked), kinase activity read “no effect” (Mitogen-activated protein kinase 12 (MAPK12, Homo sapiens, UniProt P53778); inhibitor, ADP-Glo; concentration not given).
Under “relative sulfonation activity”, `OCc1ccc(-c2nn(Cc3ccncc3)c3ccccc23)o1` is recorded as less than 2 fold (Sulfotransferase 1A1 (SULT1A1, Homo sapiens, UniProt P50225); substrate, colorimetric; 100 µM; baseline: benzyl alcohol).
For `COc1cc(F)ccc1-c1ncnc(Nc2cccc(C[S@](C)(=N)=O)c2)n1`, the remaining activity was 107% (Serine/threonine-protein kinase Nek6 (NEK6, Homo sapiens, UniProt Q9HC98); kinase activity; 10 µM, with: 10 µM ATP).
The Ki (uncompetitive) of `CC(C)CCC[C@@H](C)[C@H]1CC[C@H]2[C@@H]3CNC4=CC(=O)CC[C@]4(C)[C@H]3CC[C@]12C` is reported as 98 ± 12 nM (3 beta-hydroxysteroid dehydrogenase/Delta 5-->4-isomerase (Mycobacterium tuberculosis, UniProt P9WQP7); inhibitor; with: NAD+ varied, DHEA 120 µM).
`Clc1cncc(OC[C@H]2CN(CCN3CCc4ccccc43)CCO2)c1` gave an inhibition of 37.8% (HTR2A; radioligand binding; concentration not given, with: [3H]ketanserin).

A few entries again:
The current amplitude of `CC(C)C[C@H](N)C(=O)O` is reported as 1020 ± 214 nA (Sodium- and chloride-dependent neutral and basic amino acid transporter B(0+) (Slc6a14, Mus musculus, UniProt Q9JMA9); transport current, two-electrode voltage clamp; Xenopus oocytes coexpressing GluN1-GluN2B; 200 µM).
For `COc1ccc(-c2cc(=O)c3c(O)cc(O)cc3o2)cc1`, the EC50 was 955 nM (ESR2; array formation, agonist; GFP-ERβ PRL-HeLa; 1 h).
For `Nc1ncnc2c1ncn2[C@@H]1O[C@H](COP(=O)(O)CP(=O)(O)OP(=O)(O)O)[C@@H](O)[C@H]1O`, the calcium influx was 77% and 81.8% and 89.9% (P2X purinoceptor 1 (P2RX1, Homo sapiens, UniProt P51575); calcium influx; 10 µM; baseline: ionomycin response).
